{"data": "Published values from different studies", "note": "Each numbered part is a random draw from the data of one study; scales do not carry over between parts.", "sequence of UniProt P41595 (whole entry, looked up)": "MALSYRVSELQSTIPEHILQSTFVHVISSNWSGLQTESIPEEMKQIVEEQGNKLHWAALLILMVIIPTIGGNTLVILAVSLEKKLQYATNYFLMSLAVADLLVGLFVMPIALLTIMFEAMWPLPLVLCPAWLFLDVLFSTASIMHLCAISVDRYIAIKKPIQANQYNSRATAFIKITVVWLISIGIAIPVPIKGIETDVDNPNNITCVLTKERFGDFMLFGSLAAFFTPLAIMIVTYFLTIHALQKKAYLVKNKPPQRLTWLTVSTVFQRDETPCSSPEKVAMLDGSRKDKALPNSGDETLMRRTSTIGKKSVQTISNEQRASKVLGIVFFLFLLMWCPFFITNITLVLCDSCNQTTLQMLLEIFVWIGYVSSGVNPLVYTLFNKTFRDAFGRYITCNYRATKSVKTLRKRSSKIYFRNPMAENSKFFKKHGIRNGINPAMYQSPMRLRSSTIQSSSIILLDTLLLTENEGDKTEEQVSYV"}
{"data": "Series 1", "host": "human", "matrix": "microsomes or S9", "tested at": "2 µM", "time": "0.5 h"}
{"Structure (SMILES)": "CC1(C)CNC(=O)c2nc(Cc3ccc(O)cc3)[nH]c2C1", "remaining compound [%]": 97.6}
{"Structure (SMILES)": "N=C(N)Nc1ccc(OCCCCCOc2ccc(NC(=N)N)cc2)cc1", "remaining compound [%]": 55.7}
{"Structure (SMILES)": "CC1COc2c(N3CC4CC3CCN4C)c(F)cc3c(=O)c(C(=O)O)cn1c23 (stereo not drawn)", "remaining compound [%]": 91.3}
{"Structure (SMILES)": "Cc1cc(C)c(-c2csc(Nc3ncnc4[nH]ncc34)n2)cc1C", "remaining compound [%]": "> 100"}
{"Structure (SMILES)": "NC(=O)CN1C(=O)/C(=c2\\sc3nc(=O)c(-c4ccccc4)nn3c2=O)c2ccccc21", "remaining compound [%]": "> 99"}
{"data": "Series 2", "method": "PRP chromatography", "setting": "linear fit, 1 mL"}
{"Structure (SMILES)": "CC(C)C[C@@H]1NC(=O)[C@H](C)NC(=O)[C@H](Cc2cscn2)NC(=O)[C@@H](CC(C)C)NC(=O)[C@@H](CCC(=O)N2CCCC2)NC(=O)[C@H](CC(C)C)NC(=O)[C@@H](CC(C)C)NC1=O", "logD 1,9-decadiene/water [log units]": -1.01}
{"Structure (SMILES)": "CC(C)C[C@@H]1NC(=O)[C@H](Cc2cscn2)NC(=O)[C@H](C)NC(=O)[C@H](CCC(=O)N2CCCC2)NC(=O)[C@@H](CCC(=O)N2CCCC2)NC(=O)[C@H](CC(C)C)NC(=O)[C@@H](CC(C)C)NC1=O", "logD 1,9-decadiene/water [log units]": -2.52}
{"Structure (SMILES)": "CC(C)C[C@@H]1NC(=O)[C@H](C)NC(=O)[C@H](CC(C)C)NC(=O)[C@@H](CC(C)C)NC(=O)[C@H](CC(C)C)NC(=O)[C@@H](C)NC(=O)[C@H](CCC(=O)N2CCCC2)NC1=O", "logD 1,9-decadiene/water [log units]": 1.54}
{"Structure (SMILES)": "CC(C)C[C@@H]1NC(=O)[C@H](C(C)C)NC(=O)[C@H](Cc2cscn2)NC(=O)[C@@H](CC(C)C)NC(=O)[C@H](C(C)C)NC(=O)[C@H](CC(C)C)NC(=O)[C@@H](CC(C)C)NC1=O", "logD 1,9-decadiene/water [log units]": 0.604}
{"data": "Series 3", "SMILES": "CC(=O)N[C@@H](Cc1c[nH]c2ccccc12)C(=O)N[C@@H](CCC(=O)C=[N+]=[N-])C(=O)OC(C)C", "dose": "dose not given", "baseline": "vehicle"}
{"method": "metabolomics", "measured": "guanosine 2'-monophosphate", "host": "mouse", "matrix": "EL4 tumour", "log2 fold change": 0.848}
{"measured": "itaconate", "host": "mouse, EL4 tumour-bearing", "matrix": "EL4 tumour", "log2 fold change": 0.915}
{"measured": "3'-CMP", "host": "mouse, EL4 tumour-bearing", "matrix": "EL4 tumour", "log2 fold change": 1.22}
{"measured": "serine", "host": "mouse, EL4 tumour-bearing", "matrix": "EL4 tumour", "log2 fold change": 0.47}
{"measured": "FAD", "host": "mouse, EL4 tumour", "matrix": "tumour", "log2 fold change": -0.0242}
{"data": "Further values, each from its own experiment"}
{"SMILES": "CN1CCN(C(=O)C(C)(C)c2ccc(C(=O)Nc3cn4cc(-c5ccncc5)ccc4n3)cc2)CC1", "target": "5-hydroxytryptamine receptor 2B (HTR2B, Homo sapiens, UniProt P41595)", "effect on": "binding", "method": "radioligand binding", "tested at": "10 µM", "quantity": "inhibition", "result": "-7.63%"}
